Published values gathered from unrelated publications.
Each numbered part is a random draw from the data of one study; scales do not carry over between parts.

Study 1 — technique: protein binding microarray; form: double-stranded DNA, one strand shown; medium: in vitro; concentration: not given; relative to: not given; direction: higher = stronger binding
Target: Histone acetyltransferase KAT6A, winged helix 2, GST fusion (KAT6A, Homo sapiens, UniProt Q92794, residues 85-181)
Setting: 8-mer, flanks averaged, mean of 2 arrays, mostly near background
Residues (chain): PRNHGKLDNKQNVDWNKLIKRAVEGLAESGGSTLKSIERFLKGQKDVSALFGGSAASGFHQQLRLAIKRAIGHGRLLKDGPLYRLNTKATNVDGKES
| Oligonucleotide | E-score |
| --- | --- |
| GCAATTAC | -0.0994 |
| GATGATCC | 0.0569 |
| GCACTGTA | 0.0926 |
| GGTCAAGA | -0.0913 |
| GGCCTCCA | 0.0213 |
| AAGGAGGA | -0.0305 |
| CTCAACTA | 0.0136 |
| CAAAGTAG | 0.0427 |

Study 2 — mode: inhibitor; concentration: 20 µM
Target: Replicase polyprotein 1ab, nsp13 helicase (rep, Severe acute respiratory syndrome coronavirus 2, UniProt P0DTD1)
| SMILES | inhibition |
| --- | --- |
| CCNC(C)CN1CCc2c(c(=O)oc3ccccc23)C1 (centres unmarked) | 9.12% |
| Fc1ccccc1CNCc1ccc(-c2ccnc3[nH]ccc23)cc1 | 2.2% |
| CN[C@@H]1[C@@H](O)[C@@H](O[C@@H]2[C@@H](O)[C@H](O[C@H]3O[C@H](CN)[C@@H](O)[C@H](O)[C@H]3O)[C@@H](N)C[C@H]2NC(=O)[C@@H](O)CN)OC[C@]1(C)O | 4.97% |
| CN1C[C@@H]2CN(c3ccc(-c4ccccc4)nn3)C[C@@H]2C1 | 6.04% |
| CCN1CCCC1=O | -8.65% |
| O=C(NCCCN1CCOCC1)c1ccc(Cl)cc1 | 2.89% |
| CCC(=O)O[C@@H](O[P@](=O)(CCCCc1ccccc1)CC(=O)N1C[C@H](C2CCCCC2)C[C@H]1C(=O)O)C(C)C | 13.3% |
| CC(C)=CCOc1ccc(/C=C/C(=O)c2ccc(OCC=C(C)C)cc2OCC(=O)O)cc1 | 5.74% |
| CCC(CC)Nc1cc(C)nc(Oc2c(C)cc(C)cc2C)c1C | 6.54% |
| NC(=O)[C@@H](CCC(F)(F)F)N(Cc1ccc(-c2ncon2)cc1F)S(=O)(=O)c1ccc(Cl)cc1 | 9.53% |
| CC(C)C[C@H](NC(=O)[C@@H](COC(C)(C)C)NC(=O)[C@H](Cc1ccc(O)cc1)NC(=O)[C@H](CO)NC(=O)[C@H](Cc1c[nH]c2ccccc12)NC(=O)[C@H](Cc1cnc[nH]1)NC(=O)[C@@H]1CCC(=O)N1)C(=O)N[C@@H](CCCNC(=N)N)C(=O)N1CCC[C@H]1C(=O)NNC(N)=O | -0.92% |
| COc1ccc(-c2nc(N3CCOCC3)c3sc(CN(C)c4ncc(C(=O)NO)cn4)cc3n2)cn1 | 12.2% |
| COc1cc2ncnc(Nc3cccc(Cl)c3)c2cc1OC | 4.34% |

Study 3 — technique: protein-binding microarray; form: double-stranded DNA, one strand shown; medium: in vitro; concentration: 250 nM; setting: 60-bp whole probe; together with: salmon DNA 0.4 mg/ml; relative to: random background probes; direction: higher = stronger binding
Target: Interferon regulatory factor 5, full length, phosphomimetic (IRF5, Homo sapiens, UniProt Q13568-2, residues 1-514, K96S/S451D/S453D/S456D/S462D)
| Oligonucleotide | log fluorescence [z-score] |
| --- | --- |
| GCCTAGCACTTAGATTTCGTGTATCGATTAGTGCTAGTCTTGATTCGCTTGACGCTGCTG | 4.61 |
| GCCTAGCACGACGGAATCGGGTATCGGGACGTGCTAGTCTTGATTCGCTTGACGCTGCTG | 0.608 |
| GCCTAGCACTTAGATTTGAGACTGGATTAGTGCTAGGTCTTGATTCGCTTGACGCTGCTG | 0.0275 |
| GCCTAGCACTCAGCTTTCTTTATGCAACTGTGCTAGGTCTTGATTCGCTTGACGCTGCTG | 1.54 |

Single results of other studies
| SMILES | target | test | conditions | quantity | value |
| --- | --- | --- | --- | --- | --- |
| CN1CCc2cccc3c2[C@H]1Cc1ccc(O)c(O)c1-3 | Replicase polyprotein 1ab, 3C-like proteinase (rep, Middle East respiratory syndrome-related coronavirus, UniProt K9N7C7) | enzyme activity | 10 µM | inhibition | 6% |

For quick reference, copied from above (study 1):
| Oligonucleotide | E-score |
| --- | --- |
| GATGATCC | 0.0569 |
| GCACTGTA | 0.0926 |
| GGTCAAGA | -0.0913 |
| GGCCTCCA | 0.0213 |
